Experimental data collected from several papers.
Lines come from different studies, so protocols differ.
HLA class I histocompatibility antigen, A alpha chain allele A*02:01: HLA class I histocompatibility antigen, A alpha chain, allele A*02:01 (Homo sapiens, UniProt P04439)
HLA class I histocompatibility antigen, A alpha chain allele A*68:02: HLA class I histocompatibility antigen, A alpha chain, allele A*68:02 (Homo sapiens, UniProt P04439)

SMILES = CC(C)C[C@H](NC(=O)[C@@H](N)CCCCN)C(=O)NCC(=O)NCC(=O)NCC(=O)N[C@@H](CCC(N)=O)C(=O)N[C@@H](Cc1ccc(O)cc1)C(=O)NCC(=O)N[C@@H](CCC(=O)O)C(=O)O; target = HLA class I histocompatibility antigen, A alpha chain (Homo sapiens, UniProt P04439); test = peptide binding, competitive radioligand binding; setting = room temperature, HLA-A*0301 allele, with: radiolabelled probe peptide; measurement = IC50; value = 2280 nM
SMILES = CC(C)C[C@H](NC(=O)[C@@H](NC(=O)[C@H](CC(C)C)NC(=O)[C@@H](NC(=O)[C@@H](N)CCCNC(=N)N)[C@@H](C)O)C(C)C)C(=O)N[C@@H](CC(=O)O)C(=O)N[C@@H](C)C(=O)N[C@@H](Cc1ccc(O)cc1)C(=O)N[C@@H](CCCCN)C(=O)O; target = HLA class I histocompatibility antigen, A alpha chain, allele A*30:01 (Homo sapiens, UniProt P04439); test = peptide binding, competitive inhibition; measurement = IC50; value = < 200 nM
SMILES = CC(C)C[C@H](NC(=O)[C@H](CCCNC(=N)N)NC(=O)[C@H](CC(C)C)NC(=O)[C@H](CC(C)C)NC(=O)[C@@H](NC(=O)[C@H](C)NC(=O)[C@@H](N)CCC(=O)O)C(C)C)C(=O)N[C@@H](CC(=O)O)C(=O)NCC(=O)N[C@H](C(=O)N[C@H](C(=O)N[C@@H](CC(C)C)C(=O)N[C@@H](CCC(=O)O)C(=O)N[C@H](C(=O)N[C@@H](CCC(=O)O)C(=O)O)C(C)C)[C@@H](C)O)[C@@H](C)O; target = HLA class I histocompatibility antigen, A alpha chain allele A*02:01; test = binding, competition binding; setting = 48 h, pH 7, 20 °C, with: fluorescent HBV core peptide; measurement = IC50; value = > 50000 nM
SMILES = CC[C@H](C)[C@H](NC(=O)CNC(=O)[C@H](CCCCN)NC(=O)[C@H](CCC(=O)O)NC(=O)[C@H](CC(C)C)NC(=O)[C@@H](N)C(C)C)C(=O)N1CCC[C@H]1C(=O)N[C@H](C(=O)N[C@@H](CC(C)C)C(=O)O)[C@@H](C)O; target = HLA class I histocompatibility antigen, A alpha chain allele A*02:01; test = binding, competitive radioligand binding; setting = 48 h, 37 °C, with: radiolabelled FLPSDYFPSV 1 nM; measurement = IC50; value = < 200 nM
SMILES = CC(C)C[C@H](NC(=O)[C@H](CC(N)=O)NC(=O)[C@H](Cc1c[nH]c2ccccc12)NC(=O)[C@H](CCC(=O)O)NC(=O)[C@H](CCC(=O)O)NC(=O)[C@H](CC(C)C)NC(=O)[C@@H](NC(=O)[C@@H](NC(=O)[C@@H](N)CC(=O)O)[C@@H](C)O)C(C)C)C(=O)O; target = HLA class I histocompatibility antigen, A alpha chain allele A*68:02; test = peptide binding, AlphaScreen; measurement = Kd; value = > 500 nM
SMILES = CC[C@H](C)[C@H](NC(=O)[C@H](CC(=O)O)NC(=O)[C@@H](NC(=O)[C@H](CC(=O)O)NC(=O)[C@H](C)NC(=O)[C@H](CCSC)NC(=O)[C@@H](N)CCCCN)C(C)C)C(=O)N[C@@H](CO)C(=O)N[C@H](C(=O)N[C@H](C(=O)O)C(C)C)[C@@H](C)O; target = HLA class I histocompatibility antigen, A alpha chain allele A*02:01; measurement = IC50; value = < 5010 nM
SMILES = CC[C@H](C)[C@H](N)C(=O)N[C@@H](C)C(=O)N[C@@H](C)C(=O)N[C@@H](CCCNC(=N)N)C(=O)N[C@@H](C)C(=O)N[C@H](C(=O)N[C@@H](CCC(=O)O)C(=O)N[C@@H](CC(C)C)C(=O)N[C@@H](CC(C)C)C(=O)O)C(C)C; target = HLA class I histocompatibility antigen, A alpha chain allele A*68:02; test = peptide binding, AlphaScreen; measurement = Kd; value = > 500 nM
SMILES = CC(C)C[C@H](NC(=O)[C@H](CCCNC(=N)N)NC(=O)[C@H](CC(C)C)NC(=O)[C@H](CC(C)C)NC(=O)[C@@H](NC(=O)[C@H](C)NC(=O)[C@H](CCC(=O)O)NC(=O)[C@H](CO)NC(=O)[C@@H]1CCCN1C(=O)[C@H](CCC(N)=O)NC(=O)[C@H](CO)NC(=O)[C@H](C)NC(=O)[C@H](CC(=O)O)NC(=O)CNC(=O)[C@@H](N)C(C)C)C(C)C)C(=O)N[C@@H](CC(=O)O)C(=O)NCC(=O)N[C@H](C(=O)N[C@H](C(=O)N[C@@H](CC(C)C)C(=O)N[C@@H](CCC(=O)O)C(=O)N[C@H](C(=O)N[C@@H](CCC(=O)O)C(=O)N[C@@H](C)C(=O)N[C@H](C(=O)N[C@@H](CO)C(=O)N[C@H](C(=O)N[C@@H](CC(C)C)C(=O)N[C@H](C(=O)N[C@H](C(=O)O)C(C)C)[C@@H](C)O)C(C)C)C(C)C)C(C)C)[C@@H](C)O)[C@@H](C)O; target = HLA class I histocompatibility antigen, A alpha chain allele A*02:01; test = binding, competition binding; setting = 48 h, pH 7, 20 °C, with: fluorescent HBV core peptide; measurement = IC50; value = > 50000 nM
